Measurements from different studies.
Numbers after ± are the reported error.

SMILES | test system | conditions | how to read | measurement | result
CCN(CC)C(=O)[C@@H]1C=C2c3cccc4[nH]cc(c34)C[C@H]2N(C)C1 | human, plasma | dose not given, after placebo pretreatment | – | CL/F | 6.9 L/h
CC[C@H](C)[C@H](NC(=O)[C@H](CC(C)C)NC(=O)[C@H](Cc1c[nH]c2ccccc12)NC(=O)[C@H](CCC(N)=O)NC(=O)[C@@H](NC(=O)[C@H](Cc1ccccc1)NC(=O)[C@H](C)NC(=O)[C@H](CCCCNC(=O)COCCOCCNC(=O)COCCOCCNC(=O)CC[C@H](NC(=O)CCCCCCCCCCCCCCCCCCC(=O)O)C(=O)O)NC(=O)[C@H](CCC(N)=O)NC(=O)[C@H](C)NC(=O)[C@@H](NC(=O)[C@H](CCCCN)NC(=O)[C@H](CC(=O)O)NC(=O)[C@H](CC(C)C)NC(=O)C(C)(C)NC(=O)[C@@H](NC(=O)[C@H](CO)NC(=O)[C@H](Cc1ccc(O)cc1)NC(=O)[C@H](CC(=O)O)NC(=O)[C@H](CO)NC(=O)[C@@H](NC(=O)[C@H](Cc1ccccc1)NC(=O)[C@@H](NC(=O)CNC(=O)[C@H](CCC(=O)O)NC(=O)C(C)(C)NC(=O)[C@@H](N)Cc1ccc(O)cc1)[C@@H](C)O)[C@@H](C)O)[C@@H](C)CC)[C@@H](C)CC)C(C)C)C(=O)N[C@@H](C)C(=O)NCC(=O)NCC(=O)N1CCC[C@H]1C(=O)N[C@@H](CO)C(=O)N[C@@H](CO)C(=O)NCC(=O)N[C@@H](C)C(=O)N1CCC[C@H]1C(=O)N1CCC[C@H]1C(=O)N1CCC[C@H]1C(=O)N[C@@H](CO)C(N)=O | human, plasma | subcutaneous, 10 mg, week 8, geometric mean | – | CL/F | 0.0311 L/h
Cc1ncc2n1-c1ccc(Cl)cc1C(c1ccccc1F)=NC2 | human | oral, substrate with omaveloxolone, with: omaveloxolone once daily | – | CL/F | 130 L/h
O[C@H]1CCCN[C@@H]1CCCn1cnc2c(Cl)c(Cl)ccc21 | healthy human, plasma | oral, 150 mg twice daily, steady state | – | CL/F | 152 L/h
Cc1nnc2n1-c1ccc(Cl)cc1C(c1ccccc1)=NC2 | human female | dose not given, day 22 | relative to: day 0 | CL/F change | 4%
CC(C)c1nc(N(C)S(C)(=O)=O)nc(-c2ccc(F)cc2)c1/C=C/[C@@H](O)C[C@@H](O)CC(=O)O | healthy human subjects, plasma | oral, 20 mg, day 1, alone, geometric mean | – | CL/F | 408 L/h
C[C@@H]1CC[C@H]2[C@@H](C)C(=O)O[C@@H]3O[C@@]4(C)CC[C@@H]1[C@]32OO4 | human, male, plasma | oral, dose not given, day 2 | – | CL/F | 258 ± 73.3 mL/min/kg
COc1ccc2c(c1)[C@]13CCCC[C@@H]1[C@H](C2)N(C)CC3 | human female | dose not given, day 22 | relative to: day 0 | CL/F change | -10.7%

For quick reference, copied from above:
SMILES | test system | conditions | how to read | measurement | result
COc1ccc2c(c1)[C@]13CCCC[C@@H]1[C@H](C2)N(C)CC3 | human female | dose not given, day 22 | relative to: day 0 | CL/F change | -10.7%
